Measured values gathered from unrelated publications.
Each line is one published result; not all experiments were run side by side.
Target: LIM domain kinase 2 (LIMK2, Homo sapiens, UniProt P53671)

The remaining binding of Nc1ncc2c(n1)-c1c([nH]c3ccc(C4=CCOCC4)cc13)CCC2 is reported as 83% (binding, competition with immobilised ligand; 1 µM).
With COc1c(Cl)cccc1Nc1c(-c2ccncc2C#C[C@@]2(C)CCCN2C(=O)/C=C/CN(C)C)[nH]c2c1C(=O)NCC2 the remaining binding was 98% (binding, competition with immobilised ligand; 3 µM).
With CCn1cc(C(=O)O)c(=O)c2c(N)c(F)c(NC3CCCCC3)cc21 the inhibition was -2.3% (kinase activity; 0.1 µM, added: ATP at Km).
With COc1cc(Nc2nccc(-c3cnn4nc(OC)ccc34)n2)cc(C(F)(F)F)c1 the remaining binding was 94% (binding, competition with immobilised ligand; 1 µM).
Nc1ncc(-c2cc(-c3cnn(CC(F)(F)F)c3)ncc2F)nc1C(=O)NC1CNCC(F)C1 (centres unmarked) gave a remaining activity of 99.4% (enzyme activity; 1 µM; relative to: DMSO control).
CCN1CCN(Cc2ccc(C(=O)Nc3ccc(C)c(NCc4cnc5[nH]ccc5c4OC)c3)cc2C(F)(F)F)CC1 gave a remaining binding of 58% (binding, competition with immobilised ligand; 1 µM).
The remaining binding of Cc1cnc2nc1Nc1cccc(c1)COC/C=C/COCc1cc(ccc1OCCN1CCOCC1)N2 is reported as 90% (binding; 0.1 µM).
Under “activity vs control”, O=C(Cc1ccc(OCc2ccccc2)cc1)NC1(C(=O)O)CCN(C(=O)c2ccc(-c3cccc(Cl)c3)cc2)CC1 is recorded as 58% (enzyme activity, inhibitor; 10 µM).
CN1CCN(Cc2ccc(-c3ccc(CO[C@H]4CCC[C@@H]4NC(=O)c4cc(-c5cnn(C)c5)cnc4N)cc3)cc2)CC1 gave an inhibition of -8% (enzyme activity, inhibitor; 0.1 µM).
Under “activity vs control”, CNC(=O)C[C@H](Cc1ccc(C#N)cc1)NC(=O)c1cc(-c2ccc(CN[C@H](C)c3ccc(C)cc3)o2)ccc1Cl is recorded as 92% (enzyme activity, inhibitor; 1 µM).
The remaining binding of CC(C)=CC1OC(C)(C)C2C=C3C(=O)C(Cl)=CC(O)C3C3C(O)C4OC4C(=O)C132 (centres unmarked) is reported as 82% (cell-free assay, competition with immobilised ligand; 10 µM).
With Cc1ccc(-c2c(/C=C(\C#N)C(=O)NC(C)C)n(CCCO)c3ncnc(N)c23)cc1 the remaining binding was 100% (cell-free assay, competition with immobilised ligand; 1 µM).
CNC(=O)C1CCN(c2cc(C)c(F)cc2NC(=O)c2ccc(-c3cc(O)ccc3C)c(C)c2)CC1 has a remaining binding of 100% (binding, competition with immobilised ligand; 1 µM).
For CNC1C[S+]2CC[S+]3CC[S+](C1)[Ru-4]321([N]=C=S)[n]2c3ccc(OC)cc3c3c4c(c5cc(F)c[n+]1c5c32)C(=O)NC4=O (centres unmarked), the remaining binding was 92% (KinomeScan; 0.1 µM; relative to: untreated).
The inhibition of CN1CC[C@@H](COc2cnc(C#N)cc2-c2ccn3nc(NC(=O)C4CC4)cc3c2)C1 is reported as 18% (enzyme activity, inhibitor; 1 µM).
C[C@H]1CN(C(=O)c2cn(-c3ccnc(N)n3)c3cc(C#CC4(O)CCCCC4)ccc23)CCN1 gave an inhibition of -1% (cell-free assay, TR-FRET; 1 µM).
COc1cc(Nc2nc(C)cc(-c3cnn4nc(OC)ccc34)n2)cc(C(F)(F)F)c1 has a remaining activity of 92% (inhibitor; 1 µM; relative to: control).
With C=CC(=O)N1CCc2ccc(-n3c(=O)ccc4cnc5ccc(-c6cnn(C)c6)cc5c43)cc21 the remaining binding was 100% (KINOMEscan; 1 µM; relative to: DMSO control).
The inhibition of C=CC(=O)N1Cc2nc(-c3cc(-c4cc(Cl)cnc4Cl)c(F)cc3F)n(-c3ccncn3)c2C1 is reported as 0.4% (cell-free assay, inhibitor; 1 µM).
C=CC(=O)N1CCCC(n2c(=O)c3ncccc3n(Cc3ccc(Oc4ccccc4)cc3)c2=O)C1 (centres unmarked) has a remaining binding of 83% (cell-free assay, competition with immobilised ligand; 1 µM).

For quick reference, copied from above:
The remaining binding of Cc1cnc2nc1Nc1cccc(c1)COC/C=C/COCc1cc(ccc1OCCN1CCOCC1)N2 is reported as 90% (binding; 0.1 µM).
Under “activity vs control”, O=C(Cc1ccc(OCc2ccccc2)cc1)NC1(C(=O)O)CCN(C(=O)c2ccc(-c3cccc(Cl)c3)cc2)CC1 is recorded as 58% (enzyme activity, inhibitor; 10 µM).
CN1CCN(Cc2ccc(-c3ccc(CO[C@H]4CCC[C@@H]4NC(=O)c4cc(-c5cnn(C)c5)cnc4N)cc3)cc2)CC1 gave an inhibition of -8% (enzyme activity, inhibitor; 0.1 µM).
